Assay results collected from several papers.
Each numbered part is a random draw from the data of one study; scales do not carry over between parts.

Block 1
Target: RNA binding protein fox-1 homolog 2, RRM domain, GST-SBP tag (RBFOX2, Homo sapiens, UniProt O43251-10, residues 100-194)
Technique: RNA Bind-n-Seq
Form: RNA
Sample: in vitro
Concentration: 365 nM
Setting: natural RNA segment, single round, ends assumed
Baseline: no-protein control
Direction: higher = stronger binding
Measurement: RBNS enrichment (R)
GGGAGUUCUACAGUCCGACGAUCAUUGCUCCAGGAUCUGGUAUACUGUUCUCAUAAAACUGAGAGGAGAAAAAAAGUGAAAGAAAGCAGCUGCUUUAAGAAUGGUUUUCCACCUUUUCCCCCUAAUCUCUACCUGGAAUUCUCGGGUGCCAA: 0.963
GGGAGUUCUACAGUCCGACGAUCUGACGUCAAUGCAAUUGAAUCACCGUUGUCAUUCAGCGAGCAACCAAUGUAGGAUUGCCCACAGUUUUUCUUUUUAAAGGUGGUUUUCGCCCUUCCUCUCCCACAUUAUUUGGAAUUCUCGGGUGCCAA: 0.858
GGGAGUUCUACAGUCCGACGAUCACAGUAUUGGGUCUUCCGAUUUAUAAACAUGGAAUGCCUCUCCAUUUAUUUUGAUCUUUAAUUUCUCUCAGCAAUGUUGUAUAAUAUCAGAAUAUGUCUUGUACUUCUAUUGGAAUUCUCGGGUGCCAA: 0.659

Block 2
Target: Fragile X messenger ribonucleoprotein 1, C-terminal low-complexity region (Fmr1, Mus musculus, UniProt P35922)
Technique: RNA Bind-n-Seq
Form: RNA
Sample: in vitro
Concentration: 200 nM
Setting: whole 134-nt RNA, ends assumed
With: 150 mM KCl
Baseline: input library
Direction: higher = stronger binding
Measurement: log2 enrichment
GGGAGUUCUACAGUCCGACGAUCAGUCCUGUGCUACACAUCGUAUGUACCGAAUCGGGGUUUUUGGGGUUUGGGGAGGGGAAAGUAUUAUGUUACGCCGUUCGGAUCUGCACUUGGAAUUCUCGGGUGUCAAGG: 0.933
GGGAGUUCUACAGUCCGACGAUCCCUCAAGUCCUGUGCUACACAUCGUAUGUACCGAAUCGGCGGGCGGGCGGGGAAAGUAUUAUGUUACGCCGUUCGGAUCUGCACUUCCAGUGGAAUUCUCGGGUGUCAAGG: 0.807
GGGAGUUCUACAGUCCGACGAUCUAACUUUAGAGGAGGAUCUGAUGGAUAUGGCAGUGGACAUGGAUUUGGGGAUGGCUAUAAUGGGUAUGGAGGAGGACCUGGAGGUGGCAAUGGAAUUCUCGGGUGUCAAGG: 0.236

Block 3
Target: Histone acetyltransferase KAT6A, both winged helices, GST fusion (KAT6A, Homo sapiens, UniProt Q92794, residues 1-181)
Technique: protein binding microarray
Form: double-stranded DNA, one strand shown
Sample: in vitro
Concentration: not given
Setting: 8-mer, flanks averaged, mean of 2 arrays, mostly near background
Baseline: not given
Direction: higher = stronger binding
Measurement: E-score
Target sequence (chain): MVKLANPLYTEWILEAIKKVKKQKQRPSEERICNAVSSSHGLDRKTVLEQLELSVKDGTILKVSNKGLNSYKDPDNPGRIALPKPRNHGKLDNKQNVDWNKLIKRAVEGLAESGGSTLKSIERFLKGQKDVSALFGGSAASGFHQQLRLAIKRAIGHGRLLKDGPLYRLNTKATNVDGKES
GTACATAA: -0.00061
GAAGGCAC: -0.0434
AACGGGGT: 0.17
ACAGCGGC: 0.27

Single results of other studies
PhoQ, residues 284 288 289 292 302 303 AGCYAI
fold induction (PhoP, residues 12 14 15 18 19 GQAIL (Escherichia coli, UniProt P23836); Sort-seq, item: YFP reporter; E. coli; PhoQ-PhoP variant library, with: 10 µM Mg2+; baseline: high Mg2+ state, higher = stronger signaling): 1.88
